Results from different studies.
Each numbered part is a random draw from the data of one study; scales do not carry over between parts. Positions count from the first letter of the parent shown.

Set 1
Substance: PhoQ, residues 284 288 289 292 302 303 GLASVI
Method: Sort-seq
Measured: YFP reporter
Medium: E. coli
Setting: PhoQ-PhoP variant library
With: 10 µM Mg2+
Relative to: high Mg2+ state
Reading: higher = stronger signaling
target	fold induction
PhoP, residues 12 14 15 18 19 LFHKL (Escherichia coli, UniProt P23836)	2.06
PhoP, residues 12 14 15 18 19 QQAYL (Escherichia coli, UniProt P23836)	15.5
PhoP, residues 12 14 15 18 19 GMGLL (Escherichia coli, UniProt P23836)	21.2

Set 2
Target: Interferon regulatory factor 3, full length, phosphomimetic (IRF3, Homo sapiens, UniProt Q14653, residues 1-427, S386D/S396D/S398D/S402D/T404D/S405D)
Method: protein-binding microarray
Form: double-stranded DNA, one strand shown
Medium: in vitro
Concentration: 2540 nM top
Setting: 60-bp whole probe
With: salmon DNA 0.4 mg/ml
Relative to: random background probes
Reading: higher = stronger binding
All sequences stand within: GCCTAGCAC … GTCTTGATTCGCTTGACGCTGCTG
Residues (chain): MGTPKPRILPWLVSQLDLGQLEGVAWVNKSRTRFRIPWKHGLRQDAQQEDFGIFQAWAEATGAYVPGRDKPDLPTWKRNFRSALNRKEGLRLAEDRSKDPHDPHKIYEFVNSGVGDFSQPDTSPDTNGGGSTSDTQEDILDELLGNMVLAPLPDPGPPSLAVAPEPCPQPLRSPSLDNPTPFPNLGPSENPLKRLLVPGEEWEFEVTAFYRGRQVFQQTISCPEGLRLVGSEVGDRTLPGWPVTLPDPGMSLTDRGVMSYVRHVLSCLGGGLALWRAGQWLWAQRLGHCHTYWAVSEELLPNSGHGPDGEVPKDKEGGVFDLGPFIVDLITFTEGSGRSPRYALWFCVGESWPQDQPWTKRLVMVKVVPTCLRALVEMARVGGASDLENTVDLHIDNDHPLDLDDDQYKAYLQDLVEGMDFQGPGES
Strand	fitted relative affinity
TTAGTTCTGAGTCTTCCCTTGTGCTAG	-0.0275 z-score
GACCGACTGGGTCTCGGGACGTGCTAG	-0.257 z-score
TTAGGCTTCGGACTGGGTTAGTGCTAG	-0.9 z-score
GACGGTAACGACACTGGGGACGTGCTA	-0.503 z-score
ACTCAGTAACATTATTGTAGGTGCTAG	0.273 z-score
TTAGGTCTCCTTTTCCTCTAGTGCTAG	5.02 z-score
TCATATTTAAGAACTATGACTGTGCTA	0.577 z-score
GACTATTTCGGGTATCGAGACGTGCTA	1.21 z-score
GACGGTCTCAGTATCGAGACGTGCTAG	1.32 z-score
GACGAATTGAGACTGGAGACGTGCTAG	-0.173 z-score
TTGCTTGTGTTTATTGTGACGTGCTAG	-0.387 z-score
GACGGTATCGGTCTCCGGACGTGCTAG	4.55 z-score
GACGAAATGGGGTTTCGAGACGTGCTA	0.72 z-score
CCCTTACCGCATATCGGGGTGTGCTAG	1.45 z-score
TTTTATGAAGGCCGGGGAGGGTGCTAG	0.112 z-score
TCAGCTTCCTCTTTTTTACTGTGCTAG	0.929 z-score
AACGATTTCAGTATCGAGACGTGCTAG	2.18 z-score
TTAGAACTGAGCTTCGATTAGTGCTAG	-0.524 z-score
TTAGGTTCCGACACTGGGTTAGTGCTA	0.881 z-score
GACCGTTTCGACTTTCGGGACGTGCTA	4.09 z-score
TTAGGTATCCTACGGCTTTAGTGCTAG	0.382 z-score
GGCGGTTTCCTTTTCCTGACGTGCTAG	11.1 z-score
CCAGACTTGATTTTGGTCTTGTGCTAG	0.248 z-score
GACGGTTTCAGGACTGGGGACGTGCTA	3.06 z-score
GACTGACTGGGGACTGGGGACGTGCTA	-0.848 z-score

Set 3
Target: RNA binding protein fox-1 homolog 2, RRM domain, GST-SBP tag (RBFOX2, Homo sapiens, UniProt O43251-10, residues 100-194)
Method: RNA Bind-n-Seq
Form: RNA
Medium: in vitro
Concentration: 365 nM
Setting: natural RNA segment, single round, ends assumed
Relative to: no-protein control
Reading: higher = stronger binding
All sequences stand within: GGGAGUUCUACAGUCCGACGAUC … UGGAAUUCUCGGGUGCCAA
Strand	RBNS enrichment (R)
CGAGUUUCGUAUUAACCUUUCCUGUCCAUGUAACAACUUCAUGACCAUUACUGCAUUGUCAAAUUCCUACUGACGACAUUAUAACUGUACGGGAGCUUAACUUUAUAAGG	0.496
GACUCCCUUGUGGCCUCAACCCGUUCGUCCUUCAGCCUGUCAUCCUUCAGGCACCGACGCCCAACCUGCCGUGACCUGUGCUGUAUGAACAACCUCACUGAGGAUUUCCU	0.374
AUUUCUCUUCAGUUGGUGUGUUUCCGGGAUGUCUUAUUUUUAGAUGGUUACACUGUUAGAACACUAUUUUUCAGAAUCUGAAUGUAAUUUGUGUAAUAAAGUGUUUUCAG	0.625
CUCUGAGACCUCUGCAAAGAUGUCCCUUUUAUGCCCUUGACCUUGACUCACCAUGGGCUGCUGGGGUGUCGGGAGAAGCCACACCCAACAUGCCCAUUAGCAGAGGCUGC	0.39
AAUAAAUUCCGGGAUAGUCGUUUUGUUCAAGGAAAUGUUUUGUAAAUUGAGCUCACACUAUAUAAUCUUUAUUGUCCUAUCCUGAUGUAUAAUACAGCAGGUAUAAUUAC	0.632
UAGAAGUGCGUCCUGUUUUCGCCUUACUUUACUCAGAGCUAGUUAGUGCUUCCUUAGUUUCCUAGCAACUAGGUGUGCAAAUCAUGUGUUGCAGCUUUACGGUUUUUAAA	0.724
UUGUGUGAAAAUGUGACAAACACACUUAUCUGUCUCUUCUACAAUUGUGGUUUAUUGAAUGUGAUUUUUCUGCACUAAUAUAAAUUAGACUAAGUGUUUUCAAAUAAAUC	1.05
GAAGUAGUUACCGUACCUUAGGAUCAUUUGUAUGUCUACUUUAUCUUAACAAAGAAAACCUGGUGCUUGCAGUAUAGCUGUAGAAUUUUCUAUGUUCAAGACGUAGCUGC	0.369
UAUAAGAGGUGCUCACAGAAAGAAUAAGGGAAACUUCCCUGAUACCUUAAUGCAAAAUCAAAAUUAUAAAAUAAAAUCAUUGACAUUGAUGGGUUUUUUUGCAUAUAAGC	0.474
CCUGCAGGGACCUGAGCUUUGCUACCCAACCAGAUUCCUCAUAGAGAUUCCUAAUCACUAGUUUCUUGUAUUCAUAAACUCAGAGAUACAGAGGGCUUGGUUUGAAGUUG	0.52
CCAGCCUCUGGGGACCAAUUGCUUUUACUGUGGUCUGUGGCCUGUCCUGUCUCUGUCAGUGGAGAAGAAAGGCAGUGAGCUGGAUCAGCCAGAGUUCUGGGAGACAACGC	0.427
GACGAGCUAUAGGUCAUACAUGAAUGUCUAGUGAGACAUUCAAAAUUCGUAUAGGGUGCAGAGUAAUUUCUUAUUGUGAGGAACUGUCCAAUGUAUUGCAAGAUGUUCUG	1.04

Set 4
Target: RING finger protein unkempt homolog, zinc fingers 1-6, SBP tag (UNK, Homo sapiens, UniProt Q9C0B0, residues 30-357)
UniProt Q9C0B0, sequence (30-357, looked up): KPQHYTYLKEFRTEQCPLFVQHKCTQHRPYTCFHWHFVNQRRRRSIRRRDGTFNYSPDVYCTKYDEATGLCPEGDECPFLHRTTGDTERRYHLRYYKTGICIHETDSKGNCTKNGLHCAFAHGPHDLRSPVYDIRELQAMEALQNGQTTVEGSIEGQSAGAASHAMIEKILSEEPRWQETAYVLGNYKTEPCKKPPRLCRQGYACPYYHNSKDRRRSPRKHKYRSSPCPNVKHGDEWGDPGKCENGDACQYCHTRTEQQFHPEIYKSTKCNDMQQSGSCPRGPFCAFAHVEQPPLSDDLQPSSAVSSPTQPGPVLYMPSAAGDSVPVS
Method: RNA Bind-n-Seq
Form: RNA
Medium: in vitro
Concentration: 100 nM
Setting: RNA with constant flanks, ends assumed
Relative to: input RNA pool
Reading: higher = stronger binding
Strand	bound/input enrichment [ratio]
GGGAGUUCUACAGUCCGACGAUCUUUUAUUGAUCAGGUCUGUAAAUGUGUACUAAAAAAAUCAGAGUUUAUUUAUAAACAAAACCGUUUAUUUAAAGAGAAGGUCUCUUCCUUAUUGAUAUCAUGGUAUGCAUUAAUUCCAUUCAACAGAGGAUUGAGCAUCA	0.174
GGGAGUUCUACAGUCCGACGAUCCAUCUCUCAUUUUAUAUGUCCAGAAAUGGCUUUGAAUUUUAAGCAAUUACCCGUUUUAAUCCGCUCUGCCCUCAUGAAGUAUUAUUAUAAUUCACCAUAAACAGCUAUCUGUCUGAAUUACAACAGAGGAUUGAGCAUCA	0.659
GGGAGUUCUACAGUCCGACGAUCAUGCCGUUUGUUUUUAAUUUCAAGCAAAAUCUUACUGUACUUGAAUGUGCCCUGUUUUGUCCGCACACCCCGACUUGCUGUAACUGUACUCAUGUCCCAGUAUGUACGUUCUUUCUAUGACAACAGAGGAUUGAGCAUCA	0.455

Set 5
Target: CCND2, cyclin fold, Cln2 fusion (human)
Method: yeast growth competition, sequencing
Medium: yeast
Setting: weak parent motif
Relative to: not given
Reading: higher = stronger binding
Starting sequence: RBL2 docking peptide (human); STTRRRLFVENDS
Variant	normalised enrichment score
STTRRRLFVMNDS [E10M]	0.47
STTPRRLFVENDS [R4P]	0.107
STTRRRLFVNNDS [E10N]	-0.114
STTRRRLFVYNDS [E10Y]	0.201
STTRRRLFVTNDS [E10T]	-0.28
STTRRRLFEENDS [V9E]	0.144
STTRRRLFVHNDS [E10H]	0.209
STTRRRLFVWNDS [E10W]	-0.00105
STTRGRLFVENDS [R5G]	0.0491
STTRHRLFVENDS [R5H]	0.6
STTRRRLFVEPDS [N11P]	0.26
STTRRRLFVEGDS [N11G]	0.52
STTRRRLMVENDS [F8M]	0.000636
STTRRRLFRENDS [V9R]	0.345
STTRRRLFVENAS [D12A]	-0.191
STTRRRWFVENDS [L7W]	-0.144
STTARRLFVENDS [R4A]	0.555
STTRRRLFVEDDS [N11D]	0.53
STTTRRLFVENDS [R4T]	0.419
STTRRRLFVANDS [E10A]	0.064
STTRRRLFNENDS [V9N]	0.705
STTRARAFVENDS [R5A L7A]	-0.0244
STTRRRLFVENDN [S13N]	-0.0862
STTRRRLFYENDS [V9Y]	0.258
STTRRRLQVENDS [F8Q]	0.528

Excerpt of the above (set 2):
Strand	fitted relative affinity
TTAGGTATCCTACGGCTTTAGTGCTAG	0.382 z-score
CCAGACTTGATTTTGGTCTTGTGCTAG	0.248 z-score
TTTTATGAAGGCCGGGGAGGGTGCTAG	0.112 z-score
GACGAAATGGGGTTTCGAGACGTGCTA	0.72 z-score
GACCGTTTCGACTTTCGGGACGTGCTA	4.09 z-score
GACGGTATCGGTCTCCGGACGTGCTAG	4.55 z-score
